Results from different studies.
Each line is one published result; not all experiments were run side by side.
Method: steady-state kinetics
B1: NUDT3 (Homo sapiens, UniProt O95989); chain MMKLKSNQTRTYDGDGYKKRAACLCFRSESEEEVLLVSSSRHPDRWIVPGGGMEPEEEPSVAAVREVCEEAGVKGTLGRLVGIFENQERKHRTYVYVLIVTEVLEDWEDSVNIGRKREWFKIEDAIKVLQYHKPVQASYFETLRQGYSANNGTPVVATTYSVSAQSSMSGIR
B2: UGT1A1 (Homo sapiens, UniProt P22309); chain HAGKILLIPVDGSHWLSMLGAIQQLQQRGHEIVVLAPDASLYIRDGAFYTLKTYPVPFQREDVKESFVSLGHNVFENDSFLQRVIKTYKKIKKDSAMLLSGCSHLLHNKELMASLAESSFDVMLTDPFLPCSPIVAQYLSLPTVFFLHALPCSLEFEATQCPNPFSYVPRPLSSHSDHMTFLQRVKNMLIAFSQNFLCDVVYSPYATLASEFLQREVTVQDLLSSASVWLFRSDFVKDYPRPIMPNMVFVGGINCLHQNPLSQEFEAYINASGEHGIVVFSLGSMVSEIPEKKAMAIADALGKIPQTVLWRYTGTRPSNLANNTILVKWLPQNDLLGHPMTRAFITHAGSHGVYESICNGVPMVMMPLFGDQMDNAKRMETKGAGVTLNVLEMTSEDLENALKAVINDKSYKENIMRLSSLHKDRPVEPLDLAVFWVEFVMRHKGAPHLRPAAHDLTWYQYHSLDVIGFLLAVVLTVAFITFKCCAYGYRKCLGKKGRVKKAHKSKTH
B3: enzyme (Methanosarcina mazei, UniProt Q8PVB1); chain MSEQRSVPLREHLLALKPCRHGGLIQETSETYGIPENEILDFSANFNPLGSPFDYPENGLNFEDIIKKSCGKLLEYPDNRYVEFREAAARFVGLGVTPQSIVPGNGSTEIVRLVVESVIEKGDKVLLPWPTFGEYEMQCRITGAEPVCPSQEEVNTLPDEVLEEAKILFICNPNNPTGKLRTREELKVLAERCREHKTLLYVDEAFIELSDPSQSVADLPAENNYVFVMRSLTKDFAIPGIRMGFGIAPPAMADILNTARLSWNLGAIANNTGIALLNIEGGIDSPYLKKAREMILKEGETLKAKIDRIRGFEAGEVNVNFILVDVSKFMLNSSELTARLAARGVLVRDCVSFHGLGKNYIRVAVRTEKENDRLIAAIGDVITEWGREQAKNELQHVIEKASEEGIGGRKTCEYYPCHFEGQNCTFCFCPFYPCENEKTGGKWIQSSRGGRVWSCVDCHLVHKKEIAQKILDCLMHEGDTDELVKVAWKEVMEPIL
B4: enzyme (Tannerella forsythia, UniProt G8UMQ6); chain PAQPGYTPSADNLKARETFQDDKFGIFIHWGIYSMLADGEWVMHNKNLNWEEYAKLASGFYPAKFNAAEWVAAIKASGAKYITITSRHHDGFSMYATQQSDYNIVDATPFKRDVIHELADECRKQGIRLHLYYSHLDWRRDDYYPLGRTGKGTGRTTQGKWEDYCAFMNNQLTELLTNYGLIGAIWFDGMWDKDIYPDGMTAKTWNLNEQYTLIHRLQPACLIGNNHHITPFAGEDIQIFERDLPGENKAGLSGQDISRLPLETCETMNGMWGYKITDQDYKSTKILIQYLVKAAGKNANLLMNVGPQPNGELPTVAVQRLREMGEWMKIYAPTIQGTRGGVVTPRDWGVTTQKGKTLYVHVLNLDDKALFLPYAGNKLKSAVEYQSRKSVRFIQDRDGILLKFTDKPHSPDYVLELTFANELPLN
B5: enzyme F197V/V84L (Vanderwaltozyma polyspora, UniProt A7TM80); chain MSVLISGASGYIAKHIVRVLLEQNYKVIGTVRSQDKADKLLKQYNNPNLSYEIVPEIANLDAFDDIFKKHGKEIKYVIHAASPLNFGAKDLEKDLVIPAINGTKNMFEAIKKYAPDTVERVVMTASYASIMTPHRQNDPTLTLDEETWNPVTEENAYENVFTAYCASKTFAEKEAWKFVKENSDAVKFKLTTIHPSVVFGPQNFDEDVTKKLNETCEIINGLLHAPFDTKVEKTHFSQFIDVRDVAKTHVLGFQKDELINQRLLLCNGAFSQQDIVNVFNEDFPELKGQFPPEDKDTDLNKGVTGCKIDNEKTKKLLAFEFTPFHKTIHDTVYQILHKEGRV
B6: enzyme (Salmonella enterica, UniProt P0A2K1); chain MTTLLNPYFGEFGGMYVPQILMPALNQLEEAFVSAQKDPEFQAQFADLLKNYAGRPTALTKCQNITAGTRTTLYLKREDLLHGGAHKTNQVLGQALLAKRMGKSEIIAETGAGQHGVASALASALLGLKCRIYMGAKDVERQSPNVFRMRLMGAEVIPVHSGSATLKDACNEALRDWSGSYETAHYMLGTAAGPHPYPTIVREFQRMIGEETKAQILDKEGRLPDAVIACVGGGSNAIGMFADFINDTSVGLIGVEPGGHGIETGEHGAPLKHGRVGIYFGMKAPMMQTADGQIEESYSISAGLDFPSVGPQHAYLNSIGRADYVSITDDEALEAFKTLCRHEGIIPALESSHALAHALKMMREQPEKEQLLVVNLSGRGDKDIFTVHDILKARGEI
Chain of UniProt Q96C36 (whole entry, unmodified, looked up): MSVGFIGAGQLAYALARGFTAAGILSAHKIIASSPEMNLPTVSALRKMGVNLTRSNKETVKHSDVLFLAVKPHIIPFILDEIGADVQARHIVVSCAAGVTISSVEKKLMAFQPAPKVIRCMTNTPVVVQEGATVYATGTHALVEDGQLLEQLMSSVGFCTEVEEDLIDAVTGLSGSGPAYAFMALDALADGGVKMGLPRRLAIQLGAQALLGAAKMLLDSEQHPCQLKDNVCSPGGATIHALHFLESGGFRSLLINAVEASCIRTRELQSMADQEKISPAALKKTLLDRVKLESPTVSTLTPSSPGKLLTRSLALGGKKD
Chain of UniProt Q9Y233 (whole entry, looked up): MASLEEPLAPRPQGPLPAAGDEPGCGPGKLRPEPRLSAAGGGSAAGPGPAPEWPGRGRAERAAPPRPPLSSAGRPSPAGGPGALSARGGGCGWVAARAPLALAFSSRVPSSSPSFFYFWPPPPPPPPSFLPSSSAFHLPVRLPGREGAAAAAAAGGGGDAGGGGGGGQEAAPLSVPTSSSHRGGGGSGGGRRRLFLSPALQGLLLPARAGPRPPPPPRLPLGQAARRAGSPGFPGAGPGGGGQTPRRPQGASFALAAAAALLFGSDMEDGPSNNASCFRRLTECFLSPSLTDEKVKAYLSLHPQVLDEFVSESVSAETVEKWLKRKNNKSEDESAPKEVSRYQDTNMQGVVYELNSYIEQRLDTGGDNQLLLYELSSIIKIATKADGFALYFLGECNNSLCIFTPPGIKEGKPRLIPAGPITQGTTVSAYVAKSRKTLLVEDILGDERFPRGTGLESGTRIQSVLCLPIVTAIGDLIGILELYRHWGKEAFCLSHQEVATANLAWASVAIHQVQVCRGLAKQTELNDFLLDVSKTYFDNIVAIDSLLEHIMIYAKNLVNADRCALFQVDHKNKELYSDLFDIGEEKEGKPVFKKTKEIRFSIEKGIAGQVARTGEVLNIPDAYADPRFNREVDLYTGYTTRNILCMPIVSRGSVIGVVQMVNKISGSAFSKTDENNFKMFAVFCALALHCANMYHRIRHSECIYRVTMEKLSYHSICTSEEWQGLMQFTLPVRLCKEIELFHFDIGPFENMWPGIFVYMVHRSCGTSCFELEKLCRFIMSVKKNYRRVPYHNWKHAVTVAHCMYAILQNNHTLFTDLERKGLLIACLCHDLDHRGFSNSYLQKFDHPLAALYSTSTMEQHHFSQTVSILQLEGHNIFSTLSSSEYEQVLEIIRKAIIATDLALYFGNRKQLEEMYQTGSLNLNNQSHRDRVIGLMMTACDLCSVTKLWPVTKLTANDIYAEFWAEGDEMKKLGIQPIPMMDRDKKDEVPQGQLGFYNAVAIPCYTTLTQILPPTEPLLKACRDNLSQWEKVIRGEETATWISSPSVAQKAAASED
Chain of UniProt P78804 (whole entry, looked up): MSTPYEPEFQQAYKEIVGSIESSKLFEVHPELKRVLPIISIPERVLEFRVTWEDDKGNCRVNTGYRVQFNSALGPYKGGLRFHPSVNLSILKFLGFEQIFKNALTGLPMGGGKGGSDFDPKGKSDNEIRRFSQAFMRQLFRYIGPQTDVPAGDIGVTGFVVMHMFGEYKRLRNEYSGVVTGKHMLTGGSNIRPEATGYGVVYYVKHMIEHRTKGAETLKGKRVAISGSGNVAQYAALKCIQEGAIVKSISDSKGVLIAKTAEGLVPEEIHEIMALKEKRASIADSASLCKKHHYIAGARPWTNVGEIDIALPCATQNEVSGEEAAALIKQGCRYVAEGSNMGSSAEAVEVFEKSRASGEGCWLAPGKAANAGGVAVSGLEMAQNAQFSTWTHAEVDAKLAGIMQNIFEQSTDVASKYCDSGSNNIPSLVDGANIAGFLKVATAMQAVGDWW
Chain of UniProt Q6RYA0 (whole entry, looked up): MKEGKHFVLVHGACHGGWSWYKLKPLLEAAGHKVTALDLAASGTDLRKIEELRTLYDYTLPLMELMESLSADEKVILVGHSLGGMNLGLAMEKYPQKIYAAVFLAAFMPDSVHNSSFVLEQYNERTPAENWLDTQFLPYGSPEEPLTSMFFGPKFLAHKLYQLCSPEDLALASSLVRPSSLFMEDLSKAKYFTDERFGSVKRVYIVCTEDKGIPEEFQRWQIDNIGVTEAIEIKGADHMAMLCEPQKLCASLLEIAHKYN
Chain of UniProt O80970 (whole entry, looked up): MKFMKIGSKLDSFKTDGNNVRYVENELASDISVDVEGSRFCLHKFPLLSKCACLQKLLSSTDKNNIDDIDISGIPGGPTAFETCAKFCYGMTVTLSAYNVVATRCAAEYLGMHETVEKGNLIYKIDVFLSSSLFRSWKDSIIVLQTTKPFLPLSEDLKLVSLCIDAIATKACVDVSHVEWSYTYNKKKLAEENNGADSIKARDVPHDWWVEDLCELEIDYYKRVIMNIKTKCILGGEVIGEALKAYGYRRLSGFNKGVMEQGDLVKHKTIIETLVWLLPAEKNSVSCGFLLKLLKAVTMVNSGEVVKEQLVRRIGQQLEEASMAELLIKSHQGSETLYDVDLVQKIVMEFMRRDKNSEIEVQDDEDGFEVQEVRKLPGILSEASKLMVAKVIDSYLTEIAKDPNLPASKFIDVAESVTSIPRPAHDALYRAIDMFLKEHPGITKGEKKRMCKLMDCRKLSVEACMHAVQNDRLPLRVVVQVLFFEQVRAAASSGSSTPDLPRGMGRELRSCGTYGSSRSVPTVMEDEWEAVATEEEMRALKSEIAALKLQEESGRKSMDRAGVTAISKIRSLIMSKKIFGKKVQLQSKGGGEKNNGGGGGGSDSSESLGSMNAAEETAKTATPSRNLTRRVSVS

Substance = spt R378K (Sphingomonas paucimobilis); substrate = CCCCCCCCCCCCCC(=O)SCCNC(=O)CCNC(=O)[C@H](O)C(C)(C)COP(=O)(O)OP(=O)(O)OC[C@H]1O[C@@H](n2cnc3c(N)ncnc32)[C@H](O)[C@@H]1OP(=O)(O)O; with = PLP; Km = 97 µM
Substance = B1 (NUDT3); substrate = Nc1ncnc2c1ncn2[C@@H]1O[C@H](COP(=O)(O)OP(=O)(O)OP(=O)(O)OP(=O)(O)OP(=O)(O)OC[C@H]2O[C@@H](n3cnc4c(N)ncnc43)[C@H](O)[C@@H]2O)[C@@H](O)[C@H]1O; with = Mg2+; Km = 24 µM
Substance = B2 (UGT1A1); substrate = C[C@]12CC[C@@H]3c4ccc(O)cc4CC[C@H]3[C@@H]1CC[C@@H]2O; temperature = 37 °C; notes = not purified; Km = 18 µM
Substance = enzyme (Pediococcus pentosaceus, UniProt A0AB73HHR8); substrate = CCn1c(=NN=c2sc3cc(S(=O)(=O)O)ccc3n2CC)sc2cc(S(=O)(=O)O)ccc21; pH = pH 3.7; temperature = 24 °C; Km = 960 µM
Substance = B3 (enzyme); substrate = Nc1ncnc2c1ncn2[C@@H]1O[C@H](COP(=O)(O)OP(=O)(O)OP(=O)(O)O)[C@@H](O)[C@H]1O; pH = pH 8.5; temperature = 25 °C; notes = apparent, anoxic; with = L-Thr 10 mM; Km = 84 µM
Substance = groEL (Pseudomonas aeruginosa, UniProt P30718); substrate = Nc1ncnc2c1ncn2[C@@H]1O[C@H](COP(=O)(O)OP(=O)(O)OP(=O)(O)O)[C@@H](O)[C@H]1O; pH = pH 7.4; temperature = 24 °C; notes = apparent; Km = 70.7 µM
Substance = acs (Salmonella enterica, UniProt Q8ZKF6); substrate = CCC(=O)O; pH = pH 7; temperature = 30 °C; notes = apparent; Km = 311 µM
Substance = PDE10A (Homo sapiens, UniProt Q9Y233); substrate = [H][C@@]12COP(=O)(O)O[C@@]1([H])[C@@H](O)[C@H](n1cnc3c(=O)[nH]c(N)nc31)O2; Km = 5.4 µM
Substance = B4 (enzyme); substrate = C[C@@H]1O[C@@H](Oc2ccc([N+](=O)[O-])cc2Cl)[C@@H](O)[C@H](O)[C@@H]1O; pH = pH 8.4; temperature = 40 °C; Km = 774 µM
Substance = enzyme (Saccharina japonica, UniProt A0A097IUE3); substrate = Nc1ncnc2c1ncn2[C@@H]1O[C@H](COP(=O)(O)OP(=O)(O)O)[C@@H](O)[C@H]1O; pH = pH 6.5; temperature = 25 °C; with = 16 mM PEP; Km = 80 µM
Substance = B5 (enzyme F197V/V84L); substrate = CCO; pH = pH 8; temperature = 30 °C; with = NADP+; Km = 2300 µM
Substance = PYCR2 (Homo sapiens, UniProt Q96C36); substrate = NC(=O)C1=CN([C@@H]2O[C@H](COP(=O)(O)OP(=O)(O)OC[C@H]3O[C@@H](n4cnc5c(N)ncnc54)[C@H](OP(=O)(O)O)[C@@H]3O)[C@@H](O)[C@H]2O)C=CC1; pH = pH 7.5; temperature = 37 °C; notes = apparent, cofactor varied; with = DL-P5C 5000 µM; Km = 216 µM
Substance = gdh N97F (Bacillus subtilis); substrate = NC(=O)c1ccc[n+]([C@@H]2O[C@H](COP(=O)(O)OP(=O)(O)OC[C@H]3O[C@@H](n4cnc5c(N)ncnc54)[C@H](O)[C@@H]3O)[C@@H](O)[C@H]2O)c1; pH = pH 8; temperature = 55 °C; Km = 560 µM
Substance = enzyme Y26F (Homo sapiens, UniProt Q08623); substrate = O=c1[nH]cc([C@@H]2O[C@H](COP(=O)(O)O)[C@@H](O)[C@H]2O)c(=O)[nH]1; pH = pH 7; temperature = 25 °C; Km = 2.3 µM
Substance = enzyme (Oryza sativa, UniProt Q6ZGQ4); substrate = O=[N+]([O-])c1ccc(O[C@@H]2OC[C@@H](O)[C@H](O)[C@H]2O)cc1; pH = pH 4; temperature = 40 °C; notes = apparent; Km = 650 µM
Substance = enzyme (Arabidopsis thaliana, UniProt O80970); substrate = Nc1nc2c(ncn2[C@@H]2O[C@H](COP(=O)(O)OP(=O)(O)OP(=O)(O)O)[C@@H](O)[C@H]2O)c(=O)[nH]1; pH = pH 7.5; temperature = 30 °C; Km = 34300 µM
Substance = enzyme (Schizosaccharomyces pombe, UniProt P78804); substrate = NC(=O)c1ccc[n+]([C@@H]2O[C@H](COP(=O)(O)OP(=O)(O)OC[C@H]3O[C@@H](n4cnc5c(N)ncnc54)[C@H](O)[C@@H]3O)[C@@H](O)[C@H]2O)c1; pH = pH 7; temperature = 30 °C; notes = apparent; Km = 2600 µM
Substance = SABP2 (Nicotiana tabacum, UniProt Q6RYA0); substrate = CC(=O)Oc1ccc([N+](=O)[O-])cc1; pH = pH 7.2; temperature = 22 °C; Km = 2200 µM
Substance = enzyme (Aspergillus fumigatus, UniProt B0XYS0); substrate = CC(C)(CO)[C@@H](O)C(=O)NCCC(=O)O; pH = pH 7.4; temperature = 80 °C; with = ATP 1000 µM; Km = 170 µM
Substance = B6 (enzyme); substrate = N[C@@H](CO)C(=O)O; pH = pH 7.8; temperature = 22 °C; notes = apparent; Km = 2160 µM

For quick reference, copied from above:
Substance = groEL (Pseudomonas aeruginosa, UniProt P30718); substrate = Nc1ncnc2c1ncn2[C@@H]1O[C@H](COP(=O)(O)OP(=O)(O)OP(=O)(O)O)[C@@H](O)[C@H]1O; pH = pH 7.4; temperature = 24 °C; notes = apparent; Km = 70.7 µM
Substance = acs (Salmonella enterica, UniProt Q8ZKF6); substrate = CCC(=O)O; pH = pH 7; temperature = 30 °C; notes = apparent; Km = 311 µM
